Experimental data collected from several papers.
Each line is one published result; not all experiments were run side by side.

Under “time without aggregation”, `CC[C@H](C)[C@H](NC(=O)[C@@H]1CCCN1C(=O)CNC(=O)[C@H](Cc1ccccc1)NC(=O)[C@H](CC(N)=O)NC(=O)[C@H](CC(N)=O)NC(=O)[C@H](CO)NC(=O)[C@H](CO)NC(=O)[C@H](Cc1c[nH]cn1)NC(=O)[C@@H](NC(=O)[C@H](CC(C)C)NC(=O)[C@H](Cc1ccccc1)NC(=O)[C@H](CC(N)=O)NC(=O)[C@H](C)NC(=O)[C@H](CC(C)C)NC(=O)[C@H](CCCNC(=N)N)NC(=O)[C@H](CCC(N)=O)NC(=O)[C@@H](NC(=O)[C@H](C)NC(=O)[C@@H]1CSSC[C@H](NC(=O)[C@@H](N)CCCCN)C(=O)N[C@@H](CC(N)=O)C(=O)N[C@@H]([C@@H](C)O)C(=O)N[C@@H](C)C(=O)N[C@@H]([C@@H](C)O)C(=O)N1)[C@@H](C)O)C(C)C)C(=O)N[C@@H](CC(C)C)C(=O)N1CCC[C@H]1C(=O)N1CCC[C@H]1C(=O)N[C@H](C(=O)N[C@@H](CC(N)=O)C(=O)N[C@H](C(=O)NCC(=O)N[C@@H](CO)C(=O)N[C@@H](CC(N)=O)C(=O)N[C@H](C(=O)N[C@@H](Cc1ccc(O)cc1)C(N)=O)[C@@H](C)O)C(C)C)[C@@H](C)O` is recorded as greater than 100 h (transmittance; sodium acetate buffer; concentration not given, pH 4, 37 °C, continuous agitation).
`AFHYESQ` — result for “time to complete degradation”: no more than 45 min (HPLC; peptide, human serum; 37 °C).
`CC(=O)O[C@H]1C(=O)[C@@]2(C)[C@H]([C@H](OC(=O)c3ccccc3)[C@]3(O)C[C@H](OC(=O)[C@H](O)[C@@H](NC(=O)c4ccccc4)c4ccccc4)C(C)=C1C3(C)C)[C@]1(OC(C)=O)CO[C@@H]1C[C@@H]2O`: “time above 0.5 µM” 23.8 h (LC-MS/MS; cancer patients, non-ritonavir cohort, plasma; intravenous, 175 mg/m^2, cycle 1 day 1, with: carboplatin).
`Cn1cc(-c2cnc3[nH]cc(-c4cccc(C#N)c4)c3c2)cn1` — result for “time to below LLOQ”: 4.7 h (plasma; oral, 5 mg/kg).
For `CN[C@H](CC(C)C)C(=O)N[C@H]1C(=O)N[C@@H](CC(N)=O)C(=O)N[C@H]2C(=O)N[C@H]3C(=O)N[C@H](C(=O)N[C@H](C(=O)O)c4cc(O)cc(O)c4-c4cc3ccc4O)[C@H](O)c3ccc(c(Cl)c3)Oc3cc2cc(c3O[C@@H]2O[C@H](CO)[C@@H](O)[C@H](O)[C@H]2O[C@H]2C[C@](C)(N)[C@H](O)[C@H](C)O2)Oc2ccc(cc2Cl)[C@H]1O`, “time above MIC” read 93% (microdialysis; pig, Danish Landrace, subcutaneous adipose tissue; intravenous, 1000 mg over 100 min, 450 min dosing interval, with: 4.0 µg/mL MIC; baseline: dosing interval).
For `CC(=O)O[C@H]1C(=O)[C@@]2(C)[C@H]([C@H](OC(=O)c3ccccc3)[C@]3(O)C[C@H](OC(=O)[C@H](O)[C@@H](NC(=O)c4ccccc4)c4ccccc4)C(C)=C1C3(C)C)[C@]1(OC(C)=O)CO[C@@H]1C[C@@H]2O`, “time above threshold concentration” read “no effect” (refers to: compound; patients, plasma; dose not given, above 0.05 µM, with: veliparib; baseline: absence of veliparib).
For `C[C@@H](O)[C@H]1C(=O)N2C(C(=O)O)=C(S[C@@H]3CN[C@H](C(=O)N(C)C)C3)[C@H](C)[C@H]12`, “time above MIC” read 32% (microdialysis; pig, Danish Landrace, cancellous bone; intravenous, 1000 mg over 10 min, 450 min dosing interval, with: 2.0 µg/mL MIC; baseline: dosing interval).
`O=C(CCCCCCC(=O)C(F)(F)F)Nc1ccccc1` — result for “time to complete disappearance”: 15 min (LC-MS; human liver S9 fraction; 0.02 mM, 37 °C, with: NADPH).
`CC(C)(CO)c1cc2cc(NC(=O)C3(c4ccc5c(c4)OC(F)(F)O5)CC3)c(F)cc2n1C[C@@H](O)CO` — result for “time to steady state”: no more than 8 days (cystic fibrosis patients, plasma; oral, dose not given, once daily dosing, with: ivacaftor twice daily).
Under “time of Cmin”, `CCN(CC)CCNC(=O)c1c(C)[nH]c(/C=C2\C(=O)Nc3ccc(F)cc32)c1C` is recorded as 1 h (human, plasma; oral, 50 mg daily, with: everolimus 30 mg weekly).
